Results gathered from unrelated publications.
Numbered parts are unrelated; each lists some results of a single study. ± gives the spread as reported.

Block 1
Cell line: human erythrocytes, washed
Time: 1 h
Temperature: 37 °C
Notes: 2% v/v RBC suspension
Measurement: HD50
CC[C@H](C)[C@H](NC(=O)CNC(=O)[C@H](C)NC(=O)[C@H](CCC(=O)O)NC(=O)[C@@H]1CCCN1)C(=O)NCC(=O)N[C@@H](C)C(=O)N[C@H](C(=O)N[C@@H](CC(C)C)C(=O)N[C@@H](CCCCN)C(=O)N[C@H](C(=O)N[C@@H](CC(C)C)C(=O)N[C@H](C(=O)N[C@H](C(=O)NCC(=O)N[C@@H](CC(C)C)C(=O)N1CCC[C@H]1C(=O)N[C@@H](C)C(=O)N[C@@H](CC(C)C)C(=O)N[C@H](C(=O)N[C@@H](CO)C(=O)N[C@@H](Cc1c[nH]c2ccccc12)C(=O)N[C@H](C(=O)N[C@@H](CCCCN)C(=O)N[C@@H](CCCNC(=N)N)C(=O)N[C@@H](CCCCN)C(=O)N[C@@H](CCCNC(=N)N)C(=O)N[C@@H](CCC(N)=O)C(=O)N[C@@H](CCC(N)=O)C(N)=O)[C@@H](C)CC)[C@@H](C)CC)[C@@H](C)O)[C@@H](C)O)C(C)C)C(C)C: 1.8 ± 0.1 µmol/L
CC[C@H](C)[C@H](NC(=O)CNC(=O)[C@H](C)NC(=O)[C@@H]1CCCN1C(=O)CNC(=O)[C@H](C)NC(=O)[C@H](CCC(=O)O)NC(=O)[C@H](C)NC(=O)[C@H](CC(=O)O)NC(=O)[C@H](C)NC(=O)[C@H](CCC(=O)O)NC(=O)[C@H](C)NC(=O)[C@H](CCC(=O)O)NC(=O)[C@@H]1CCCN1C(=O)[C@H](CCC(=O)O)NC(=O)CNC(C)=O)C(=O)NCC(=O)N[C@@H](C)C(=O)N[C@H](C(=O)N[C@@H](CC(C)C)C(=O)N[C@@H](CCCCN)C(=O)N[C@H](C(=O)N[C@@H](CC(C)C)C(=O)N[C@H](C(=O)N[C@H](C(=O)NCC(=O)N[C@@H](CC(C)C)C(=O)N1CCC[C@H]1C(=O)N[C@@H](C)C(=O)N[C@@H](CC(C)C)C(=O)N[C@H](C(=O)N[C@@H](CO)C(=O)N[C@@H](Cc1c[nH]c2ccccc12)C(=O)N[C@H](C(=O)N[C@@H](CCCCN)C(=O)N[C@@H](CCCNC(=N)N)C(=O)N[C@@H](CCCCN)C(=O)N[C@@H](CCCNC(=N)N)C(=O)N[C@@H](CCC(N)=O)C(=O)N[C@@H](CCC(N)=O)C(N)=O)[C@@H](C)CC)[C@@H](C)CC)[C@@H](C)O)[C@@H](C)O)C(C)C)C(C)C: 72.2 ± 3.6 µmol/L
CC[C@H](C)[C@H](NC(=O)CNC(=O)[C@H](C)NC(=O)[C@H](CCC(=O)O)NC(=O)[C@@H]1CCCN1C(=O)[C@@H](N)CC(=O)O)C(=O)NCC(=O)N[C@@H](C)C(=O)N[C@H](C(=O)N[C@@H](CC(C)C)C(=O)N[C@@H](CCCCN)C(=O)N[C@H](C(=O)N[C@@H](CC(C)C)C(=O)N[C@H](C(=O)N[C@H](C(=O)NCC(=O)N[C@@H](CC(C)C)C(=O)N1CCC[C@H]1C(=O)N[C@@H](C)C(=O)N[C@@H](CC(C)C)C(=O)N[C@H](C(=O)N[C@@H](CO)C(=O)N[C@@H](Cc1c[nH]c2ccccc12)C(=O)N[C@H](C(=O)N[C@@H](CCCCN)C(=O)N[C@@H](CCCNC(=N)N)C(=O)N[C@@H](CCCCN)C(=O)N[C@@H](CCCNC(=N)N)C(=O)N[C@@H](CCC(N)=O)C(=O)N[C@@H](CCC(N)=O)C(N)=O)[C@@H](C)CC)[C@@H](C)CC)[C@@H](C)O)[C@@H](C)O)C(C)C)C(C)C: 4.7 ± 0.3 µmol/L

Block 2
Organism: Lucilia cuprina
Route: thorax injection
Time: 1 h
Measurement: PD50
CC[C@H](C)[C@H](NC(=O)[C@H](Cc1ccccc1)NC(=O)[C@H](CC(=O)O)NC(=O)[C@H](CCCCN)NC(=O)[C@H](C)NC(=O)[C@H](CCCCN)NC(=O)[C@H](CC(N)=O)NC(=O)[C@H](CC(C)C)NC(=O)[C@H](Cc1c[nH]c2ccccc12)NC(=O)[C@H](CCC(=O)O)NC(=O)[C@H](CCCCN)NC(=O)[C@@H](NC(=O)CNC(=O)[C@H](C)N)[C@@H](C)O)C(=O)N[C@@H](CCCCN)C(=O)N[C@@H](CCC(=O)O)C(=O)N[C@@H](CCCCN)C(=O)NCC(=O)N[C@@H](CC(C)C)C(=O)N[C@@H](CCC(=O)O)C(=O)N[C@@H](CCSC)C(=O)N[C@@H](CC(C)C)C(=O)N[C@@H](CO)C(=O)N[C@@H](C)C(=O)N[C@@H](C)C(=O)N[C@@H](C)C(=O)N[C@@H](CC(N)=O)C(=O)N[C@@H](C)C(=O)N[C@@H](C)C(=O)N[C@@H](CC(C)C)C(=O)N[C@@H](CC(N)=O)C(=O)O: > 50 nmol/g
CC[C@H](C)[C@H](NC(=O)CNC(=O)[C@H](CC(C)C)NC(=O)CNC(=O)[C@H](CCCCN)NC(=O)[C@H](CCC(=O)O)NC(=O)[C@H](CCCCN)NC(=O)[C@@H](NC(=O)[C@H](Cc1ccccc1)NC(=O)[C@H](CC(=O)O)NC(=O)[C@H](CCCCN)NC(=O)[C@H](C)NC(=O)[C@H](CCCCN)NC(=O)[C@H](CC(N)=O)NC(=O)[C@H](CC(C)C)NC(=O)[C@H](Cc1c[nH]c2ccccc12)NC(=O)[C@H](CC(=O)O)NC(=O)[C@H](CCCCN)NC(=O)[C@@H](NC(=O)CNC(=O)[C@H](C)N)[C@@H](C)O)[C@@H](C)CC)C(=O)N[C@@H](CC(C)C)C(=O)N[C@@H](CO)C(=O)N[C@@H](C)C(=O)N[C@@H](C)C(=O)N[C@@H](C)C(=O)N[C@@H](CC(N)=O)C(=O)N[C@@H](C)C(=O)N[C@@H](C)C(=O)N[C@H](C(=O)N[C@@H](CC(N)=O)C(=O)O)[C@@H](C)CC: 37.1 ± 4.9 nmol/g
CC[C@H](C)[C@H](NC(=O)[C@H](Cc1ccccc1)NC(=O)[C@H](CC(=O)O)NC(=O)[C@H](CCCCN)NC(=O)[C@H](C)NC(=O)[C@H](CCCCN)NC(=O)[C@H](CC(N)=O)NC(=O)[C@H](CC(C)C)NC(=O)[C@H](Cc1c[nH]c2ccccc12)NC(=O)[C@H](CCC(=O)O)NC(=O)[C@H](CCCCN)NC(=O)[C@@H](NC(=O)CN)[C@@H](C)O)C(=O)N[C@@H](CCCCN)C(=O)N[C@@H](CCC(=O)O)C(=O)N[C@@H](CCCCN)C(=O)NCC(=O)N[C@@H](CC(C)C)C(=O)NCC(=O)N[C@@H](CCSC)C(=O)N[C@@H](CC(C)C)C(=O)N[C@@H](CO)C(=O)N[C@@H](C)C(=O)N[C@@H](C)C(=O)N[C@@H](C)C(=O)N[C@@H](CC(N)=O)C(=O)N[C@@H](C)C(=O)N[C@@H](C)C(=O)N[C@@H](CC(C)C)C(=O)N[C@@H](CC(N)=O)C(=O)O: 12.1 ± 3.9 nmol/g

Other studies, line by line
O=c1ccn(C2OC(F)(CO)C(O)C2O)c(=O)[nH]1 (stereo not drawn) — EC50 (Lassa virus; HeLa, clade IV Josiah): 1000 ± 610 nM
CC(C)C[C@@H]1NC(=O)[C@H](CCCNC(=N)N)NC(=O)[C@@H]2CCCN2C(=O)[C@@H]2CSSC[C@H](NC(=O)CNC(=O)[C@@H]3CCCN3C(=O)[C@H](CCCCN)NC(=O)[C@H](CC(=O)O)NC(=O)[C@@H](NC(=O)CN)C(C)C)C(=O)N[C@@H](CCCNC(=N)N)C(=O)N[C@@H](Cc3ccc(O)cc3)C(=O)N[C@@H](CC(C)C)C(=O)N[C@@H](Cc3ccccc3)C(=O)NCC(=O)NCC(=O)N[C@H]3CSSC[C@H](NC(=O)CNC1=O)C(=O)N[C@@H](CCCCN)C(=O)NCC(=O)N[C@@H](CCCCN)C(=O)NCC(=O)N[C@@H](Cc1c[nH]cn1)C(=O)N[C@@H](CC(=O)O)C(=O)N[C@@H](Cc1ccc(O)cc1)C(=O)N[C@H](C(=O)N[C@@H](C)C(=O)N[C@@H](Cc1c[nH]c4ccccc14)C(=O)N[C@@H](CC(=O)O)C(=O)NCC(=O)N[C@H](C(=O)N[C@@H](Cc1ccccc1)C(=O)N[C@@H](CO)C(=O)N[C@@H](CC(=O)O)C(=O)O)[C@@H](C)O)CSSC[C@H](NC(=O)[C@H](CC(=O)O)NC(=O)[C@H](CC(=O)O)NC(=O)[C@H](CC(=O)O)NC(=O)[C@H](CO)NC(=O)[C@H](CCCCN)NC3=O)C(=O)N2 — neurons depolarized at ramp end (mouse small DRG neurons; concentration not given): 30%
CC(C)Oc1ccc(-n2cnc3cc(/C=C\c4ccc(C(C)(C)O)cc4)ccc32)cc1 — EC50 (Lassa virus; HeLa, clade III Nigeria-231): 170 ± 80 nM

Excerpt of the above (block 1):
CC[C@H](C)[C@H](NC(=O)CNC(=O)[C@H](C)NC(=O)[C@H](CCC(=O)O)NC(=O)[C@@H]1CCCN1)C(=O)NCC(=O)N[C@@H](C)C(=O)N[C@H](C(=O)N[C@@H](CC(C)C)C(=O)N[C@@H](CCCCN)C(=O)N[C@H](C(=O)N[C@@H](CC(C)C)C(=O)N[C@H](C(=O)N[C@H](C(=O)NCC(=O)N[C@@H](CC(C)C)C(=O)N1CCC[C@H]1C(=O)N[C@@H](C)C(=O)N[C@@H](CC(C)C)C(=O)N[C@H](C(=O)N[C@@H](CO)C(=O)N[C@@H](Cc1c[nH]c2ccccc12)C(=O)N[C@H](C(=O)N[C@@H](CCCCN)C(=O)N[C@@H](CCCNC(=N)N)C(=O)N[C@@H](CCCCN)C(=O)N[C@@H](CCCNC(=N)N)C(=O)N[C@@H](CCC(N)=O)C(=O)N[C@@H](CCC(N)=O)C(N)=O)[C@@H](C)CC)[C@@H](C)CC)[C@@H](C)O)[C@@H](C)O)C(C)C)C(C)C: 1.8 ± 0.1 µmol/L
